Measurements from different studies.
A part holds a random share of what one study measured.

Block 1
Target: TAR DNA-binding protein 43, full length, His tag (TARDBP, Homo sapiens, UniProt Q13148, residues 1-414)
Technique: RNA Bind-n-Seq
Form: RNA
Medium: in vitro
Concentration: 20 nM
Setting: 6-mer, flanks averaged, single round
Added: 150 mM LiCl
Relative to: input library
Reading: higher = stronger binding
Oligonucleotide	6-mer enrichment (R)
ACGCUA	0.839
AGGAUA	0.864
UAGGUU	0.991
AGCCGA	0.856
CCUUUC	0.991
AUCCAC	0.86
CCUGCA	0.914

Block 2
Target: Histone acetyltransferase KAT6A, winged helix 2, GST fusion (KAT6A, Homo sapiens, UniProt Q92794, residues 85-181)
Technique: protein binding microarray
Form: double-stranded DNA, one strand shown
Medium: in vitro
Concentration: not given
Setting: 8-mer, flanks averaged, mean of 2 arrays, mostly near background
Relative to: not given
Reading: higher = stronger binding
Target sequence (chain): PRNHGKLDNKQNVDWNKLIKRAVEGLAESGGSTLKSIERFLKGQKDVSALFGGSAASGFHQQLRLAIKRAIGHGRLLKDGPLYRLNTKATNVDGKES
Oligonucleotide	E-score
CCTACGAG	-0.0201
ATCGCTGA	-0.127
CCTGGTAA	-0.18
CCACACAA	0.0553
AGAGACTG	-0.138

Block 3
Target: Sal-like protein 4, full length isoform A (SALL4, Homo sapiens, UniProt Q9UJQ4, residues 1-1053)
Chain of UniProt Q9UJQ4 (whole entry, looked up): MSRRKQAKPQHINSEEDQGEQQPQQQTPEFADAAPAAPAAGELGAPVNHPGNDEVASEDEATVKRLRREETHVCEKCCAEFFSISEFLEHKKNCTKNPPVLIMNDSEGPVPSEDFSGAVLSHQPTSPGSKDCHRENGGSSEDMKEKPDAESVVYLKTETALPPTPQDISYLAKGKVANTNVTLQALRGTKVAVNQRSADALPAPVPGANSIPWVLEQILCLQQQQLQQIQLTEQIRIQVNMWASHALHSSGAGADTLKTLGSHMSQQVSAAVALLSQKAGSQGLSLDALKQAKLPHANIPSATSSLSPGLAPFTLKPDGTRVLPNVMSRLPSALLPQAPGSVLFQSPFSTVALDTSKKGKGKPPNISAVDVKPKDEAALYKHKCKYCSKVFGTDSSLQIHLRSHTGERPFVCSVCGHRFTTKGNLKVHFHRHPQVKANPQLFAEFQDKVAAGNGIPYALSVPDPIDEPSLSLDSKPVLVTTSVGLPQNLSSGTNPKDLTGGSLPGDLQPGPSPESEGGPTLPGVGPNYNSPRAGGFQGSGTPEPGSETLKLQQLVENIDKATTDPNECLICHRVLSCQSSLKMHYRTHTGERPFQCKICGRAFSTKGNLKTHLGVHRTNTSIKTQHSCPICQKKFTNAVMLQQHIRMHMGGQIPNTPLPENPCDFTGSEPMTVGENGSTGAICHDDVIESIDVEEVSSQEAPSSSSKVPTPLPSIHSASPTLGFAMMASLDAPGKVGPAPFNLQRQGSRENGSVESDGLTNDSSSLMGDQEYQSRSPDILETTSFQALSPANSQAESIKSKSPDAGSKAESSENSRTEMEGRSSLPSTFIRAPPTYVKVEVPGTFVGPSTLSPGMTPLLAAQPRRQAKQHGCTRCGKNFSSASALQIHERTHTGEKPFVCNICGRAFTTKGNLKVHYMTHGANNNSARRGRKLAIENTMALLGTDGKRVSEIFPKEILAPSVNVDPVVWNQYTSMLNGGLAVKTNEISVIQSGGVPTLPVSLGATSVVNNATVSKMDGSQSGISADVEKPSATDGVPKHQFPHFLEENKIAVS
Technique: universal PBM
Form: double-stranded DNA, one strand shown
Medium: in vitro
Concentration: 600 nM
Setting: 8-mer, flanks averaged, mean of replicates
Reading: higher = stronger binding
Oligonucleotide	E-score
CCGTAAAC	0.0192
GGCGCCGA	-0.289
GTTACCTA	0.0341
AATTATCT	0.324
CTGAAGGC	-0.185
CACCATCC	-0.22

Single results of other studies
Molecule	target	test	system	conditions	how to read	measurement	result
PhoQ, residues 284 288 289 292 302 303 AGCYAI	PhoP, residues 12 14 15 18 19 NHFIF (Escherichia coli, UniProt P23836)	Sort-seq, refers to: YFP reporter	E. coli	PhoQ-PhoP variant library, added: 10 µM Mg2+	relative to: high Mg2+ state, higher = stronger signaling	fold induction	12.2

Some of these lines once more (block 2):
Oligonucleotide	E-score
CCACACAA	0.0553
AGAGACTG	-0.138
